Earlier results that unrelated publications cite.
Numbered parts are unrelated; values within a part may stem from several laboratories. ± gives the spread as reported.
Sequence of UniProt O15244 (whole entry, looked up): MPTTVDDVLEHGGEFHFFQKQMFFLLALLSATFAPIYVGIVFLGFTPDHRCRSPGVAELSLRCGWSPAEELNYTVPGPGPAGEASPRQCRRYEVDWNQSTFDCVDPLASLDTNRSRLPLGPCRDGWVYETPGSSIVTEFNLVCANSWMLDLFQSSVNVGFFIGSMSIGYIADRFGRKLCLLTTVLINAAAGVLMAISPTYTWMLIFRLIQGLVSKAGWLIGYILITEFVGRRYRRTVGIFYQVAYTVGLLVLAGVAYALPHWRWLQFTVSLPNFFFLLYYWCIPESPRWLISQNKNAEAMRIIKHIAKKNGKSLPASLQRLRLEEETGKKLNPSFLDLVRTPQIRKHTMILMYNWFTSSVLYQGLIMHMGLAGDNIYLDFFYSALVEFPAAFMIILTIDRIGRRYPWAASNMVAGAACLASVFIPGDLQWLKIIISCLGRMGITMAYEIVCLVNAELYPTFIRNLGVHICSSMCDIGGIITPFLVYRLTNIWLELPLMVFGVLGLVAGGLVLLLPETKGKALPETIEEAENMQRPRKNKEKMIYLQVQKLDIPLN
Sequence of UniProt Q63273 (whole entry, looked up): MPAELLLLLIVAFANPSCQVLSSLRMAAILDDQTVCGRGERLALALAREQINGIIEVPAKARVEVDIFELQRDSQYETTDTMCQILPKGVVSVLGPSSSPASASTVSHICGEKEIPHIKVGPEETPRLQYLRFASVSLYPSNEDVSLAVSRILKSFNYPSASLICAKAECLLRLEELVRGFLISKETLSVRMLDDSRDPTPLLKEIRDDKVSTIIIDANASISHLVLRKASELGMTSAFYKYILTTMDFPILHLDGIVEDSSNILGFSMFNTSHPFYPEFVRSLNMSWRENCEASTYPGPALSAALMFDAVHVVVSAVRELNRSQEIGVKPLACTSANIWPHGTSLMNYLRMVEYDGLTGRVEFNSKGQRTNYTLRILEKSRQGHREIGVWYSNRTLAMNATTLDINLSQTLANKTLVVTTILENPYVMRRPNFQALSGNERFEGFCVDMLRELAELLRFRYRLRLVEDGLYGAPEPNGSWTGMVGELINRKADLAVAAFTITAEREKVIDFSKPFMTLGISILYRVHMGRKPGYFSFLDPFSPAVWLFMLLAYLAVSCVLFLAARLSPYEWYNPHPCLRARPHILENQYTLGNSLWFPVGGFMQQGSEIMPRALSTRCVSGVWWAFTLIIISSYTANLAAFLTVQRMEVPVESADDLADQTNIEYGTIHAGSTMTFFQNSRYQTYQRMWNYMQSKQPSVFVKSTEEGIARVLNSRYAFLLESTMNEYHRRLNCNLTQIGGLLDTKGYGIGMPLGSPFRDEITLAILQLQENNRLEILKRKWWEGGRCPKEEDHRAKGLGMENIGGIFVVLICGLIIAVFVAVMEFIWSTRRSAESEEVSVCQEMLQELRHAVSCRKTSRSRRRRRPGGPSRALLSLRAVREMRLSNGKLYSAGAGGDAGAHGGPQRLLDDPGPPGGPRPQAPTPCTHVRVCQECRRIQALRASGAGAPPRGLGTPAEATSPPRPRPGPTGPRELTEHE
Sequence of UniProt Q9NPD5 (whole entry, looked up): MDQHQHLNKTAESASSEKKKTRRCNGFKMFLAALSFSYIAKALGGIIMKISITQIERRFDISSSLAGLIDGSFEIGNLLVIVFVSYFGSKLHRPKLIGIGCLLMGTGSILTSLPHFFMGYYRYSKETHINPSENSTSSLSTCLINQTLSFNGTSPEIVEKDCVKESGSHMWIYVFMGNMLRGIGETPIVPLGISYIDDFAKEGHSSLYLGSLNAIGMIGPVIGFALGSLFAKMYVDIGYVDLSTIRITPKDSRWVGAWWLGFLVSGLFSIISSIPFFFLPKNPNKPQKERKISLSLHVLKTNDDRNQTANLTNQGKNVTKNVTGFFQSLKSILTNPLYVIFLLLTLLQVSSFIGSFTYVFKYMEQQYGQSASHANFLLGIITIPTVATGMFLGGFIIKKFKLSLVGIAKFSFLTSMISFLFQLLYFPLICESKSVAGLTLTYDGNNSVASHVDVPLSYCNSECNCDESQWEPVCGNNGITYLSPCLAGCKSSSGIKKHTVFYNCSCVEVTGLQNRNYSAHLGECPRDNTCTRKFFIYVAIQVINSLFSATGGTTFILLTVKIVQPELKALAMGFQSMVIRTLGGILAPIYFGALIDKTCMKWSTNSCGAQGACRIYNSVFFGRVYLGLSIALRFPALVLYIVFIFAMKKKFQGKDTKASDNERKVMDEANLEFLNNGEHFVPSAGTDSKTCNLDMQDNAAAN
Sequence of UniProt P42866 (whole entry, looked up): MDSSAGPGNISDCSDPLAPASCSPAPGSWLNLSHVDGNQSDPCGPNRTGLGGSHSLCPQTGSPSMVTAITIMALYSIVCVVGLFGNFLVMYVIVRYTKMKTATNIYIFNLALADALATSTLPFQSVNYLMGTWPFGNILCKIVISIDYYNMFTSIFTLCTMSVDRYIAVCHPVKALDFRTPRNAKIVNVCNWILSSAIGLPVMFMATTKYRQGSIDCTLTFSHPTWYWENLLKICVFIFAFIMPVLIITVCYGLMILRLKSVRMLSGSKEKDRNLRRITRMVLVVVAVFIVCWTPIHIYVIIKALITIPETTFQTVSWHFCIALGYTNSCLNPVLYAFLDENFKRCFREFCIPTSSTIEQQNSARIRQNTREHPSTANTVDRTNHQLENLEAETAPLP

Block 1 — read-out: peptide-MHC binding; form: peptide
Target: HLA class I histocompatibility antigen, A alpha chain, allele A*26:03 (Homo sapiens, UniProt P04439)
`KVMVICYAY` has an IC50 of > 20 µM.
For `HEVHAVWPG`, the IC50 was > 20 µM.
`ETFRLLRSF` gave an IC50 of 0.298 µM.
With `PHPVVVRTL` the IC50 was > 20 µM.
`ARHGEYAPF` gave an IC50 of > 20 µM.
For `DFGYATMAK`, the IC50 was > 20 µM.
`IYTTNDNNY` has an IC50 of > 20 µM.
With `QWSPGPGRL` the IC50 was > 20 µM.
With `WLSVIAFGK` the IC50 was > 20 µM.
`VLYCVHQEI` gave an IC50 of > 20 µM.
The IC50 of `NVHRSQFAQ` is reported as > 20 µM.
`GLYRLNFRR` gave an IC50 of > 20 µM.
For `QVFKGVVIR`, the IC50 was > 20 µM.
With `KSNRIPFLY` the IC50 was > 20 µM.
`RWRVYLRRK` gave an IC50 of > 20 µM.
For `VLYCVHQHI`, the IC50 was > 20 µM.
`KRFYQTVGF` gave an IC50 of > 20 µM.
For `REWGWRIPF`, the IC50 was > 20 µM.
With `RVYNNTARY` the IC50 was > 20 µM.
For `YQAFRTKVH`, the IC50 was > 20 µM.
`ETPGSTDNY` has an IC50 of 0.138 µM.
`YQYIFLSFF` has an IC50 of > 20 µM.
For `ALYSYASAK`, the IC50 was 0.495 µM.
For `IHIPGDTLF`, the IC50 was > 20 µM.
`IHLDKGGQF` gave an IC50 of > 20 µM.

Further values, each from its own experiment
Ar: Androgen receptor (Ar, Rattus norvegicus, UniProt P15207)
Sequence of UniProt P15207 (whole entry, looked up): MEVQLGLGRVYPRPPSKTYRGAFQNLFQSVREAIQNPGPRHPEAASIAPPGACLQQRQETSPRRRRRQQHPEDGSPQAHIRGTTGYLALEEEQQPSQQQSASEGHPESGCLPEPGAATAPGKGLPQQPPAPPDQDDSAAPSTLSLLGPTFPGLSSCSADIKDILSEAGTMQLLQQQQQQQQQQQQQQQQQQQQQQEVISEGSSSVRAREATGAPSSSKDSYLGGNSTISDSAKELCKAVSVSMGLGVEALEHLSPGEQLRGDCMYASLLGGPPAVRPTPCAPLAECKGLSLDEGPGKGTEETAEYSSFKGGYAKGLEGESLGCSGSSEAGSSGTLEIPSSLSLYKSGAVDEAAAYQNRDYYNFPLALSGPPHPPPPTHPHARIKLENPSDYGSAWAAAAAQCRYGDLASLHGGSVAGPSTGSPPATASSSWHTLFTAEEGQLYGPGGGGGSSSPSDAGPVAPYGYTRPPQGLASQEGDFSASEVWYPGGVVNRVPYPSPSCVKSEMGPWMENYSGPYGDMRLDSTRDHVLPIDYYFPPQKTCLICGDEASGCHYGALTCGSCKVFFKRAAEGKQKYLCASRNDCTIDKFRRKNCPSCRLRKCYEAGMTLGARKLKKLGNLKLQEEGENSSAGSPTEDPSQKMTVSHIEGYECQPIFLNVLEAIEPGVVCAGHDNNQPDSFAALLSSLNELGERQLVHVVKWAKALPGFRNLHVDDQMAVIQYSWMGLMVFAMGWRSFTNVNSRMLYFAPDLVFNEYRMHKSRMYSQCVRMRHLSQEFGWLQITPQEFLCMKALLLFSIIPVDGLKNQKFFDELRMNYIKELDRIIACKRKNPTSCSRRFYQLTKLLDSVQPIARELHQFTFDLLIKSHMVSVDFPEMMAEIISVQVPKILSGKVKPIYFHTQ
The Ki of `CN[C@H]1[C@H]2O[C@@](C[C@H](N)C(=O)O)(C(=O)O)C[C@H]2OC[C@H]1O` is reported as 4.3 µM (Grik5 (Rattus norvegicus, UniProt Q63273)).
The ED50 of `C=CCN1CC[C@]23c4c5ccc(O)c4OC2C(NC(=O)c2cccc(I)c2)CC[C@@]3(O)[C@H]1C5` (some centres unmarked) is reported as 0.6 mg/kg (CD1 mice; subcutaneous).
`CCC(C)(c1ccc(O)cc1)c1ccc(O)cc1` gave a Kd of 0.0798 µM (estrogen receptor beta; binding).
`CCCc1nn(C)c2c(=O)[nH]c(-c3cc(S(=O)(=O)N4CCN(C)CC4)ccc3OCC)nc12` gave an IC50 of 4 µM (SLCO1B3 (Homo sapiens, UniProt Q9NPD5); transport, inhibitor; OATP1B3, literature value, with: Bosentan substrate).
With `O=C(NCC1CCOCC1)c1cnc(Nc2ccc(Cl)cc2Cl)nc1C(F)(F)F` the EC50 was > 30 µM (cannabinoid receptor CB1; agonist).
`CCN(CC)CCCC(C)Nc1ccnc2cc(Cl)ccc12` (centres unmarked) gave an IC50 of 1100 µM (SLC22A2 (Homo sapiens, UniProt O15244); transport, inhibitor; OCT2, literature value, with: MPP+ substrate).
With `Oc1ccc(-c2ccc(Cl)cc2)cc1` the glucuronidation rate was 36 pmol/min/mg protein (rat liver; 1 µM).
`C=C(C)[C@@H]1CCC(C)=C[C@H]1c1c(O)cc(CCCCC)cc1O` gave an AUC increase of 58% (refers to: midazolam; human; dose not given, with: midazolam).
Under “duration of hallucinogenic effect”, `CC(C)N(CCc1c[nH]c2cccc(O)c12)C(C)C` is recorded as 2 to 3 h (human; concentration not given, anecdotal reports).
`CC[C@H](c1ccc(O)cc1)[C@@H](CC)c1ccc(O)cc1`: “AR binding call” “inactive” (Ar; validation reference set; concentration not given).
For `NC(CC1(C(=O)O)CC2OC(CO)C(O)C(O)C2O1)C(=O)O` (centres unmarked), the seizure-inducing dose was 0.11 nmol/mouse (mouse; intracerebroventricular, preliminary).
`O=C(O)C(F)(F)C(F)(F)C(F)(F)C(F)(F)C(F)(F)C(F)(F)C(F)(F)F` gave a t1/2 of 1.3 years (one-compartment model; human, blood and urine).
`C=C1C(=O)O[C@@H]2[C@H]3C(=C)[C@@H](O)C[C@H]3C(=C)C[C@H](O)[C@@H]12` gave an IC50 of 28.8 µM (hepatitis B virus; HBsAg secretion; HepG2.2.15).
`Oc1c(Cl)cc(-c2ccc(Cl)c(Cl)c2)cc1Cl` has a glucuronidation rate of 23 pmol/min/mg protein (rat liver; 1 µM).
With `C=CCN1C[C@H](C)N([C@H](c2ccc(C(=O)N(CC)CC)cc2)c2cccc(OC)c2)C[C@H]1C` the logD was 3.28 (pH 7).
`CN1CCCC[C@@H]1Cn1cc(C(=O)c2cc([N+](=O)[O-])ccc2I)c2ccccc21` gave an EC50 of 0.118 µM (cannabinoid receptor CB2; agonist).
`C[C@@H](O)[C@@H]1NC(=O)[C@H](CCCCN)NC(=O)[C@@H](Cc2c[nH]c3ccccc23)NC(=O)[C@H](Cc2ccccc2)NC(=O)[C@@H](NC(=O)[C@H](N)Cc2ccccc2)CSSC[C@@H](C(=O)N[C@H](CO)[C@@H](C)O)NC1=O` has a clearance of 10 to 14 L/h (healthy volunteers; intravenous, 25 200 µg).
`CC12CC1(C)C(=O)N(c1cc(Cl)cc(Cl)c1)C2=O` (centres unmarked): activity class “active” (Ar; binding; concentration not given).
Under “cumulative urinary excretion”, `O=C(O)C(Br)Br` is recorded as 11.4 ± 5.5 µg (rat, urine; oral gavage, 40 mg/kg, 48 h, includes endogenous amounts).
The EC50 of `O=C(NC1CC[C@@]2(O)[C@H]3Cc4ccc(O)c5c4[C@@]2(CCN3CC2CC2)C1O5)c1cccc(I)c1` (some centres unmarked) is reported as 0.00049 ± 0.00012 µM (Oprm1 (Mus musculus, UniProt P42866)).
For `C[C@H](c1ccccc1)n1cncc1C(=O)OCCC(=O)O`, the blood concentration was 480 ± 110 µM (rat; MOC-etomidate infusion, 4 h after infusion end).
The AUC of `C[C@]12C=CC(=O)C=C1CC[C@@H]1[C@@H]2C(=O)C[C@@]2(C)[C@H]1CC[C@]2(O)C(=O)CO` is reported as 0.32 to 6.24 µM·h (human, plasma; dose not given, range of reported values).
`COC1=C[C@]23CCN(C)[C@H](Cc4ccc(OC)c(O)c42)C3=CC1=O` gave an IC50 of 2.19 µM (hepatitis B virus; antigen secretion, refers to: HBsAg; HepG2.2.15).
The IC50 of `CC(=O)O[C@@]12CO[C@@H]1C[C@H](O)[C@@]1(C)C(=O)[C@H](OC(=O)C3CC3)C3=C(C)[C@@H](OC(=O)[C@H](O)[C@H](C=C(C)C)NC(=O)OC(C)(C)C)C[C@@](O)([C@@H](OC(=O)c4ccccc4)[C@H]21)C3(C)C` is reported as 0.00223 µM (HCT-116; cytotoxicity).
The AUC of `CC(C)(C)NC(=O)[C@@H]1C[C@@H]2CCCC[C@@H]2CN1C[C@@H](O)[C@H](Cc1ccccc1)NC(=O)[C@H](CC(N)=O)NC(=O)c1ccc2ccccc2n1` is reported as 1.53 to 4.03 µM·h (human, plasma; dose not given, range of reported values).
